# Results of several laboratories.
Structure (SMILES),cell line,test,system,setting,scale,endpoint,value
C/C=C(/C)C(=O)O[C@H]1C(C)=C2[C@H]([C@@H]1OC(=O)CCCCCCC)[C@@](C)(OC(C)=O)C[C@H](OC(=O)CCC)[C@@]1(O)[C@H]2OC(=O)[C@@]1(C)O,HEK293T,"RNA-seq, refers to: HSPD1 mRNA",,"10 µM, 6 h",relative to: vehicle,log2 fold change,-0.0197
Cn1cncc1C1=CN(c2ncnc3[nH]cnc23)CCS1,SK-MEL-5,,,melanoma cell line,,CC50,112 µM
CN1CCN(C2(CNC3CCN(c4cccc(-c5cc6cc(F)ccc6[nH]5)c4)CC3)CCC2)CC1,OVCAR-3,,,,,CC50,5.87 µM
COc1c(CCC[P+](c2ccccc2)(c2ccccc2)c2ccccc2)cc2c(c1OC)OCO2.[I-],SN12C,SRB,,,,GI50,-5.62 log M
Nc1ncnc2c1ncn2[C@@H]1O[C@@H]2COP(=O)(O)O[C@H]3[C@@H](O)[C@H](n4cnc5c(=O)[nH]cnc54)O[C@@H]3COP(=O)(O)O[C@H]2[C@H]1O,HFF-1,"RNA sequencing, refers to: Reactome chemokine receptor binding",,upregulated pathways,relative to: mock,fold enrichment,8.98
COc1c(C)c2c(c(O)c1C/C=C(\C)CCC(=O)O)C(=O)OC2,Caco-2,cell proliferation,colon cancer,,,IC50,1.05 µM
CC(C)N1CCC(NC2CCN(c3cccc(-c4cc5cc(F)ccc5[nH]4)c3)CC2)CC1,OVCAR-3,,,,,CC50,6.03 µM
COc1cc(CCC[P+](c2ccccc2)(c2ccccc2)c2ccccc2)c(OC)c2c1OCO2.[I-],EKVX,SRB,,,,GI50,-5.55 log M

# Some of these lines once more:
Structure (SMILES),cell line,test,system,setting,scale,endpoint,value
CC(C)N1CCC(NC2CCN(c3cccc(-c4cc5cc(F)ccc5[nH]4)c3)CC2)CC1,OVCAR-3,,,,,CC50,6.03 µM
